# Results of several laboratories.
# Protein sequences, listed by entry. Tags and fused reporters are not part of them. Residues count along the entry.
# UniProt P30419, whole entry: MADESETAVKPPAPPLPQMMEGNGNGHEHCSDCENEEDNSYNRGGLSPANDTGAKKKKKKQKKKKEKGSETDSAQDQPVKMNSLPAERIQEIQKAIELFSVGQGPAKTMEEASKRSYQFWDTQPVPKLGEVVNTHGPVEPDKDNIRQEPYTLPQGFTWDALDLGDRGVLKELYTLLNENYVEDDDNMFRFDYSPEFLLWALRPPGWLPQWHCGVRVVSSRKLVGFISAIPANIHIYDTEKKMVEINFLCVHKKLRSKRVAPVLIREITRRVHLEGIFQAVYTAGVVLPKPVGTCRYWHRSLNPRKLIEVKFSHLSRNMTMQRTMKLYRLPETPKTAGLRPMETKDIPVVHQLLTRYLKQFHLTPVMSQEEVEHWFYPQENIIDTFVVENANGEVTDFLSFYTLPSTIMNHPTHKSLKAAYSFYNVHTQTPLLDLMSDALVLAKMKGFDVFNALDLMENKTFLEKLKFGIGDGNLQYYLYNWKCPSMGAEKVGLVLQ
# UniProt Q9H8M2, whole entry: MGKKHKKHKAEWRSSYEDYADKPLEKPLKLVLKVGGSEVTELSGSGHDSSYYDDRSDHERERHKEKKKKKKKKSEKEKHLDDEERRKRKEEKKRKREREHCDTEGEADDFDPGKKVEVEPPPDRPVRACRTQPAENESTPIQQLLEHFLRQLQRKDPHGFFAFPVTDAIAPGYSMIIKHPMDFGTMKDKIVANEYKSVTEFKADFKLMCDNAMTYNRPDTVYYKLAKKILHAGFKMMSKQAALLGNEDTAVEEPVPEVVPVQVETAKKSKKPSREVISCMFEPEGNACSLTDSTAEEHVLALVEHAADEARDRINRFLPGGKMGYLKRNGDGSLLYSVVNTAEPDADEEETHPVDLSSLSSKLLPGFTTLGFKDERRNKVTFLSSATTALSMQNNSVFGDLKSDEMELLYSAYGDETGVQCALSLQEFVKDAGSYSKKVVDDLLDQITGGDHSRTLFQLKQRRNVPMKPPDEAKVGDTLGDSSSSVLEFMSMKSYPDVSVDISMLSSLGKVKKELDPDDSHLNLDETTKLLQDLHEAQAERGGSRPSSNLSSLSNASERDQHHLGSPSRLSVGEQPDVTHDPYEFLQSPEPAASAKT
# UniProt Q9H2G2, whole entry: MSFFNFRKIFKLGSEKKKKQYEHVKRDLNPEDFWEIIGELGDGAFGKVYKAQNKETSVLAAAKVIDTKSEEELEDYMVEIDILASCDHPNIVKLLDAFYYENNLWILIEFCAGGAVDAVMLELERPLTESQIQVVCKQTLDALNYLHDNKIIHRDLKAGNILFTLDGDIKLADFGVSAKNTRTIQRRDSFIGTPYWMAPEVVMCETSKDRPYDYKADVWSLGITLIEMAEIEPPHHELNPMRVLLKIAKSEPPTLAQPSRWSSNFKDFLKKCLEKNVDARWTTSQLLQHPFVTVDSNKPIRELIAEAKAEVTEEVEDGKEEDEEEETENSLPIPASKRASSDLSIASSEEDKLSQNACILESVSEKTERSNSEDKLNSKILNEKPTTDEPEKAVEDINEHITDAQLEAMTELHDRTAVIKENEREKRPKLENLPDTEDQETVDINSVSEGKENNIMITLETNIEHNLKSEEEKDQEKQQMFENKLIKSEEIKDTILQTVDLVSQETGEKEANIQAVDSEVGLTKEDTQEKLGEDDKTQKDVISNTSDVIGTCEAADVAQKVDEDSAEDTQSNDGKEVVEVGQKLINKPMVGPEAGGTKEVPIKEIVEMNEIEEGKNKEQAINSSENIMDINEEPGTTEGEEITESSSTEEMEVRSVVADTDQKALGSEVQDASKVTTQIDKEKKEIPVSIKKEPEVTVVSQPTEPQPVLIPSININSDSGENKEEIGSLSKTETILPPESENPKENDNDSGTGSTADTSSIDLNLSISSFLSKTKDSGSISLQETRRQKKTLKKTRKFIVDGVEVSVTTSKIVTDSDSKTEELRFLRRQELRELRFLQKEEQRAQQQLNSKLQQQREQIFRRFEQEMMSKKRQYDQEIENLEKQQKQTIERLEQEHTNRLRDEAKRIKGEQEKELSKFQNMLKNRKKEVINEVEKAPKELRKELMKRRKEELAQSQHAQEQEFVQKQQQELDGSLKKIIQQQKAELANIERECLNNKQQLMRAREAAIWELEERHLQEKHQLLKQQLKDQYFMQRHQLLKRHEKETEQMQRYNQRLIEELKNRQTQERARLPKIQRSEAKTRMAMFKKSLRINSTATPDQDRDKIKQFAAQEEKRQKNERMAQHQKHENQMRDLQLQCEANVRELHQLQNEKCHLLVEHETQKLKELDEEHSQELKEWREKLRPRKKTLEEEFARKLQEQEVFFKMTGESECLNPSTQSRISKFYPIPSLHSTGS
# UniProt O00255, whole entry M278K: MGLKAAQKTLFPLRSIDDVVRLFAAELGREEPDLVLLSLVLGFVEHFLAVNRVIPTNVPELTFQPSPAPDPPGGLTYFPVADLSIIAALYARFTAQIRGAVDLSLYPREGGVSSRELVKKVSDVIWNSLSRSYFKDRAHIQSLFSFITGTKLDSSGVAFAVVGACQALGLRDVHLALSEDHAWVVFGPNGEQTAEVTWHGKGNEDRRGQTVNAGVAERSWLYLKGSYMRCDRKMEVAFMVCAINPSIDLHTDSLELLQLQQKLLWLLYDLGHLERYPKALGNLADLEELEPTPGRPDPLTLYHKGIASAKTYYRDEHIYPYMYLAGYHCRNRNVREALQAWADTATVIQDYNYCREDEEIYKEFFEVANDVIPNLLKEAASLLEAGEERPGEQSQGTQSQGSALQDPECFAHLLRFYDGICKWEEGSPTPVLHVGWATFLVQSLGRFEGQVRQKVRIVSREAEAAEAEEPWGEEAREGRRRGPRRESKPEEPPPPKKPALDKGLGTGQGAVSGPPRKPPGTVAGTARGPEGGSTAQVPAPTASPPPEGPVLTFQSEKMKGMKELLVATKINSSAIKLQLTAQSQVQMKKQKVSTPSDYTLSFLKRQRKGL
# UniProt P41148, 22-804 limits assumed: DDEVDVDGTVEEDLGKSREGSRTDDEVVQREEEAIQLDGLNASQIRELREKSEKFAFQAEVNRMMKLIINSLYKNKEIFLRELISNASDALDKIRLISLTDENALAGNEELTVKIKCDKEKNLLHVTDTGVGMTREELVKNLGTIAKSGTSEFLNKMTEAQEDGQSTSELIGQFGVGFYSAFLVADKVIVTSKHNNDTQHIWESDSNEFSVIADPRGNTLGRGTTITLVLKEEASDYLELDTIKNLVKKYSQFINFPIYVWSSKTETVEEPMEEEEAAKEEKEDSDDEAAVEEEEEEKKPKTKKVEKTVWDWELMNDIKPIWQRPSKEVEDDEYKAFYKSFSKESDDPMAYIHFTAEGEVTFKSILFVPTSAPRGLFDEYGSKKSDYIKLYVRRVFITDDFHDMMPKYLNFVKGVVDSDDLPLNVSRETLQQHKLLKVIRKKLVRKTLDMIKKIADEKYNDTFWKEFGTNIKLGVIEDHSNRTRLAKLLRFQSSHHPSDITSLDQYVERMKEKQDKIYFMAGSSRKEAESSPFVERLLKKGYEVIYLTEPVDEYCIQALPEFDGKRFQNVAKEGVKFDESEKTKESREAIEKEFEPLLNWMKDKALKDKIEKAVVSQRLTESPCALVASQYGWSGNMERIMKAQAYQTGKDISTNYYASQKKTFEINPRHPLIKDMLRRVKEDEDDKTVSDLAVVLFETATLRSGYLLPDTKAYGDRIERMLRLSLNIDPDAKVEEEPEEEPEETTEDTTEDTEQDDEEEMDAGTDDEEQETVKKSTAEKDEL
# UniProt P00533, 25-1210 T790M/C797S/L858R limits assumed: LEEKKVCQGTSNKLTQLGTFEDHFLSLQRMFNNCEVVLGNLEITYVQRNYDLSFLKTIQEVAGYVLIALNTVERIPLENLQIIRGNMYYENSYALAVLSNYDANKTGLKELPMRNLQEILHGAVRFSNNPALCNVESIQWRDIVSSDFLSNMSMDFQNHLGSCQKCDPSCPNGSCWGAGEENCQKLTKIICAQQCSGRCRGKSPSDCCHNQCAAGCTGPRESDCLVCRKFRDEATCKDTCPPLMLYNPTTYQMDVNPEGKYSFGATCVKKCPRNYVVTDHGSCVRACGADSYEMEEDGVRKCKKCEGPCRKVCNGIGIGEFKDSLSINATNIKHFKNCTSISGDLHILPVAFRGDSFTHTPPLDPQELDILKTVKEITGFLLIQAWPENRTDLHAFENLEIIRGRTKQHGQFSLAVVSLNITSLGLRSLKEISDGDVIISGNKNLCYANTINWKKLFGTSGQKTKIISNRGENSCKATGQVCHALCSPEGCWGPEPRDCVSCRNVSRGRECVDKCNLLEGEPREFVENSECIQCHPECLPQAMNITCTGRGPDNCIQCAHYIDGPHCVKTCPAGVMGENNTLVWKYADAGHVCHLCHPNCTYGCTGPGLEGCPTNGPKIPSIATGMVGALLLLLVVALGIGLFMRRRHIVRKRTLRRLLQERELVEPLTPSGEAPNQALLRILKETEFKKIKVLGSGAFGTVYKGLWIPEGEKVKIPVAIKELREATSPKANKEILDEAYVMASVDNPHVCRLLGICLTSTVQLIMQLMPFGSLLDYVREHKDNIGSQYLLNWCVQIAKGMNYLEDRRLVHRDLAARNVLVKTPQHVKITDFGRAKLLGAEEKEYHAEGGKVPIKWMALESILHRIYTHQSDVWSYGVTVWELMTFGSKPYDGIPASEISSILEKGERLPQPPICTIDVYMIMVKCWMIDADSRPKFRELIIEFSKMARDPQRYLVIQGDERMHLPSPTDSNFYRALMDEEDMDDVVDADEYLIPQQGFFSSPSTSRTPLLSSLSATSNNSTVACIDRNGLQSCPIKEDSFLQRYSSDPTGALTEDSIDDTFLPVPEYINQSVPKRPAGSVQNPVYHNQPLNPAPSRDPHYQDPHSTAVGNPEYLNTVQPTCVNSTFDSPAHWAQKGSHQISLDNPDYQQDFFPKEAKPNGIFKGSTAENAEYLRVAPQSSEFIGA
# UniProt P29317, 28-206 limits assumed: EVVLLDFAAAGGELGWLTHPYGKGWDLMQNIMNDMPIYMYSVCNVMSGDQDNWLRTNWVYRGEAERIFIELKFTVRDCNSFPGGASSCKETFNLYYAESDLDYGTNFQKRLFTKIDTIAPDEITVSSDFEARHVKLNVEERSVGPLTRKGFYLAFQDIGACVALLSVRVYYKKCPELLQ
# UniProt O35453, 1-416 isoform 2: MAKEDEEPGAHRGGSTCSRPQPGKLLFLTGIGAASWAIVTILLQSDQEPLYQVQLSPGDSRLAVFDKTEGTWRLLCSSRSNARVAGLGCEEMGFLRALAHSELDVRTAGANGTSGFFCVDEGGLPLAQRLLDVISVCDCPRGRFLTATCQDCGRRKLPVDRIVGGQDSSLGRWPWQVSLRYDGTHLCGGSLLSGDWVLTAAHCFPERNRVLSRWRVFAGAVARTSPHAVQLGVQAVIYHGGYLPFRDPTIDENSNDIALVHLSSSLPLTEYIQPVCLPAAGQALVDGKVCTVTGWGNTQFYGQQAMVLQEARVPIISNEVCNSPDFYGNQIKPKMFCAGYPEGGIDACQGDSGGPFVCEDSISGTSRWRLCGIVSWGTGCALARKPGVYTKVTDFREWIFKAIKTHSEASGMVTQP
# UniProt Q62666, whole entry: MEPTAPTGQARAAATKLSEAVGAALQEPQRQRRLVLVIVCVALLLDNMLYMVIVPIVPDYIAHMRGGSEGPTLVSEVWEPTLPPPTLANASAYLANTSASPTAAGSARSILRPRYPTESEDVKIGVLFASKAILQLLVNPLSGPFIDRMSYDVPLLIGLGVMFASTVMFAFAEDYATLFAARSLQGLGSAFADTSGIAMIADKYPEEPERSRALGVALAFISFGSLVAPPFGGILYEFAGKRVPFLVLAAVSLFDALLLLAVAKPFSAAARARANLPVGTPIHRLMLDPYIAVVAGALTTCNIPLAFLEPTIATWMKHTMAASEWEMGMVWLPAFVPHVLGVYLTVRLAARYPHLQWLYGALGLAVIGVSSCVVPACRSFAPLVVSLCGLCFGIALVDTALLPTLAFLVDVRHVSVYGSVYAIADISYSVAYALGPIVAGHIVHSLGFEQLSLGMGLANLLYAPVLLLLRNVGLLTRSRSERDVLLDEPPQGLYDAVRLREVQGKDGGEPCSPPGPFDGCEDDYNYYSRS
# UniProt Q9CZP5, whole entry, looked up: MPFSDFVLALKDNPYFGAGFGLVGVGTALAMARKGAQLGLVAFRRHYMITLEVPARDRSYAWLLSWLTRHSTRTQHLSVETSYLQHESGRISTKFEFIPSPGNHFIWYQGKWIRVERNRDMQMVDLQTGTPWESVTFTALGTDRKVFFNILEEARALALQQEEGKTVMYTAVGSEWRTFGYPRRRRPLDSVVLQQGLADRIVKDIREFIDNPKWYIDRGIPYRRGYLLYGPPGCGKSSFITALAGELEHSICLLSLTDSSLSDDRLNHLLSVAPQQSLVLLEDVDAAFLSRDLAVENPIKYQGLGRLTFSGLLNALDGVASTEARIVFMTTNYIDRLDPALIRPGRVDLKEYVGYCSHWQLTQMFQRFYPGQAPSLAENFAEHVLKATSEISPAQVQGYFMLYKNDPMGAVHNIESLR
# Numbers after ± are the reported error.
# NMT1: Glycylpeptide N-tetradecanoyltransferase 1 (NMT1, Homo sapiens, UniProt P30419)
# NR3C1: Glucocorticoid receptor (NR3C1, Homo sapiens, UniProt P04150)
SMILES,tested on,test,test system,conditions,scale,measurement,value
Fc1cc(-c2ccc3c(n2)[nH]c2ccncc23)ccn1 [isotope labelled],"Microtubule-associated protein tau, paired helical filaments (MAPT, Homo sapiens, UniProt P10636)",radioligand binding,PHF tau brain homogenate,4.94 nM,higher = more binding,specific binding,5.41 a.u.
c1ccc2[nH]c3c(N=NC4=NCCN4)c4ccccc4c-3nc2c1,"NQO2 (Homo sapiens, UniProt P16083)",from IC50 by Cheng-Prusoff,,,,binding free energy,-8.4 kcal/mol
CCc1c(-c2ccccc2)nn2c(=O)cc(-c3cccc(C(=O)O)c3)[nH]c12,"BLVRA (Homo sapiens, UniProt P53004)","enzyme activity, inhibitor",,"10 µM, together with: biliverdin IXα 25 µM",,remaining activity,97%
CC[C@@H]1C(=O)N(C)c2cnc(Nc3ccc(C(=O)NC4CCN(C)CC4)cc3OC)nc2N1C1CCCC1,"BRD9 (Homo sapiens, UniProt Q9H8M2)",,,10 µM,,delta Tm,0.51 ± 0.09 °C
O=c1/c(=C/c2ccc(-c3cc(Cl)cc(Cl)c3)o2)sc2nc3cc(Br)cnc3n12,"DUSP3 (Homo sapiens, UniProt P51452)","phosphatase activity, inhibitor",,together with: OMFP,,IC50,8.8 µM
CCN1CCN(Cc2ccc(NC(=O)c3ccc(C)c(Oc4ncnc5cc(OC)c(OC)cc45)c3)cc2C(F)(F)F)CC1,"SLK (Homo sapiens, UniProt Q9H2G2)",KINOMEscan competition binding,,1.0 µM,,residual probe binding,0.8%
O=c1/c(=C/c2ccc(-c3ccccc3[N+](=O)[O-])o2)sc2nc3cc(Br)cnc3n12,"PTPN22 (Homo sapiens, UniProt Q9Y2R2)","phosphatase activity, inhibitor",,together with: OMFP,,IC50,~100 µM
Cc1cccc(NC(=O)c2nn(Cc3cnc[nH]3)c3c2CN(C(=O)c2ccc[nH]2)CC3)c1,IDH1 R132G AML cells,"granulocytic differentiation, flow cytometry",,"3 µM, 6 to 7 days",reference: DMSO,CD15-positive cells,1.1 ± 0.4 fold
C[C@H](NC(=O)[C@H](CCCCN)NC(=O)[C@H](CO)NC(=O)[C@H](CO)NC(=O)[C@H](CCC(N)=O)NC(=O)[C@H](CO)NC(=O)CN)C(=O)N1CCC[C@H]1C(=O)O,NMT1,substrate,,,,Km,11.7 µM
O=C(CCl)N[C@@H](Cc1ccccc1)C(=O)N1CCCC[C@H]1C(=O)NCCc1c[nH]c2ccc(F)cc12,"PIN1 (Homo sapiens, UniProt Q13526)",thermal shift,,second of two transitions,,ΔTm,-14.3 ± 0.28 °C
C[C@H](NC(=O)[C@H](CCCCN)NC(=O)[C@H](CO)NC(=O)[C@H](CO)NC(=O)[C@H](CCCCN)NC(=O)[C@H](CCCNC(=N)N)NC(=O)CN)C(=O)N[C@@H](CCCCN)C(=O)O,NMT1,substrate,,,,Km,1.2 µM
COc1cc(CC(=O)NCC(NC(=O)C(CCCNC(=O)c2cccc(I)c2)NC(=O)C(Cc2ccc(C(F)(F)P(=O)(O)O)cc2)NC(=O)c2ccc(C)c(Br)c2)C(N)=O)ccc1O (stereo not shown),"PTPN13 (Homo sapiens, UniProt Q12923)",enzyme activity,,10 µM,,inhibition,no inhibition
CC(C)c1cc2c(N3CCN(C4=NCC(C)(C)S4)CC3)ncnc2s1,"Menin (MEN1, Homo sapiens, UniProt O00255, M278K)",thermal shift,,concentration not given,,binding,no binding
N=C(N)NCCC[C@H](NC(=O)[C@H](CCCNC(=N)N)NC(=O)[C@H](CCCCN)NC(=O)[C@H](CO)NC(=O)[C@H](Cc1ccccc1)NC(=O)[C@H](Cc1ccccc1)NC(=O)[C@H](CS)NC(=O)CN)C(=O)O,NMT1,substrate,,,,Km,13.6 µM
C[C@@]12CCC(=O)C=C1CC[C@H]1C2[C@@H](O)C[C@]2(C)[C@@H]1CC[C@@]2(O)C(=O)COC(=O)C1CCCC1 (stereo partly shown),NR3C1,"nuclear translocation, agonist, enzyme fragment complementation",,,,Hill slope,0.54
COC(=O)c1c(O)cc(O)c(Cl)c1CCc1ccc(OC)cc1Cc1ccccc1,"Endoplasmin (HSP90B1, Canis lupus familiaris, UniProt P41148)",fluorescence polarization,,together with: FITC-geldanamycin tracer,reference: Grp94 over Hsp90α,selectivity ratio,4 fold
O=C1CCC(N2C(=O)c3cccc(NCCOCCOCCOCCN4CCN(c5ccc(-c6ccc7c(c6)C(=O)N(C(C(=O)Nc6nccs6)c6ccccc6)C7)cn5)CC4)c3C2=O)C(=O)N1 (stereo not shown),"EGFR (Homo sapiens, UniProt P00533, C797S/L858R/T790M)","degrader, Western blot",Ba/F3 EGFR L858R/T790M/C797S,"0.1 µM, 24 h",,degradation,74%
COc1ccc2[nH]cc(CCNC(=O)[C@H](Cc3ccncc3)NC(=O)[C@H](Cc3ccc(Cl)cc3)NC(=O)[C@H](Cc3c[nH]c4ccc(O)cc34)NC(=O)CCCN)c2c1,"EPHA2 (Homo sapiens, UniProt P29317)","binding, isothermal titration calorimetry",,,,Kd,inactive
Cc1c(O)cc2c(c1C)O[C@](C)(CCCC(C)C)CC2,LNCaP,western blot,non-raft membrane fractions,"concentration not given, 24 h",,Akt Ser473 phosphorylation decrease,> 65%
Fc1cccc(-n2cnc3c(NCc4nc5cc(Cl)ccc5[nH]4)nc(N4CCNCC4)nc32)c1,"CDK7 (Homo sapiens, UniProt P50613)",KINOMEscan competition binding,,10 µM,reference: control,remaining binding,1.5%
O=C(Oc1c(F)c(F)c(F)c(F)c1F)C(c1ccccc1)c1ccccc1,"PFKP (Homo sapiens, UniProt Q01813)","enzyme activity, inhibitor, NADH-coupled absorbance",,,,maximal inhibition,~80%
O=C(ON1C(=O)C2CN(C(=O)N3CCOCC3)CCN2C1=O)N1CCC(CCc2ccc(Cl)cc2)CC1 (stereo not shown),"Acyl-protein thioesterase 2 (Mus musculus, UniProt Q9WTL7)","enzyme activity, inhibitor, gel-based ABPP","C57BL/6 mice, liver and kidney","intraperitoneal, 4 h, not brain",,dose for near-complete inhibition,5 mg/kg
CC(C)C[C@H](NC(=O)[C@H](Cc1c[nH]cn1)NC(=O)[C@H](C)NC(=O)CN)C(=O)N[C@H](C(=O)N[C@@H](CCCNC(=N)N)C(=O)N[C@@H](CCCNC(=N)N)C(=O)N[C@@H](Cc1ccc(O)cc1)C(=O)O)C(C)C,NMT1,substrate,,,,Km,16.4 µM
Cc1cccc(C2Nc3cccc4cccc(c34)N2)c1,"Serine protease hepsin (Hpn, Mus musculus, UniProt O35453)",hepsin activity,,50 µM,reference: vehicle,inhibition of pericellular proteolysis,~60%
NC[C@@H]1O[C@H](C23CC4CC(CC(C4)C2)C3)Cc2c1ccc(O)c2O,"DRD5 (Homo sapiens, UniProt P21918)",agonist,,,reference: SKF-81297,Emax,100 ± 6%
C[C@]1(c2ccccc2)O[C@@H]2C[C@@H]3[C@@H]4CCC5=CC(=O)C=C[C@@]5(C)[C@]4(F)[C@H](O)C[C@]3(C)[C@@]2(C(=O)CO)O1,NR3C1,"nuclear translocation, agonist, enzyme fragment complementation",,,,maximal activity,85%
O=C(Nc1cccnn1)N1CC(Oc2ccc(-c3ccccc3F)cn2)C1,,,healthy humans,"oral, 50 to 500 mg/day, day 7, repeated daily dosing, range of means",,terminal half-life,9.6 to 18.3 h
CCCCCCCCCCCCCC(=O)O[C@H](CCCCCCCCCCC)CC(=O)O[C@@H]1[C@@H](NC(=O)C[C@@H](CCCCCCCCCCC)OC(=O)CCCCCCCCCCC)[C@H](OC[C@H]2O[C@H](OP(=O)(O)O)[C@H](NC(=O)C[C@H](O)CCCCCCCCCCC)[C@@H](OC(=O)C[C@H](O)CCCCCCCCCCC)[C@@H]2O)O[C@H](CO)[C@H]1OP(=O)(O)O,"msbA (Escherichia coli, UniProt P60752)",fluorescence quenching,,"concentration not given, 23 °C, daunorubicin site occupied first",reference: daunorubicin site empty over occupied,binding affinity decrease,~5 fold
"CC1=Cc2ccccc2C12CCN(C1Cc3ccccc3CC1O)CC2 (single isomer, unassigned)","Vesicular acetylcholine transporter (Rattus norvegicus, UniProt Q62666)",,,,reference: Ki sigma2 (rat liver) over Ki VAChT,selectivity ratio,290
C[C@H](NC(=O)[C@@H]1CCCN1C(=O)CNC(=O)[C@H](CO)NC(=O)[C@H](CCC(N)=O)NC(=O)[C@H](CCCCN)NC(=O)[C@H](C)NC(=O)CN)C(=O)O,NMT1,substrate,,,,Km,2 µM
Nc1ncnc2c1ncn2[C@@H]1O[C@H](COP(=O)(O)OP(=O)(O)OP(=O)(O)O)[C@@H](O)[C@H]1O,"Bcs1l (Mus musculus, UniProt Q9CZP5)","conformational turnover, HS-AFM line scanning",,"ambient, 20% cardiolipin membrane",,Km,~0.2 µM

# Some of these lines once more:
SMILES,tested on,test,test system,conditions,scale,measurement,value
Fc1cc(-c2ccc3c(n2)[nH]c2ccncc23)ccn1 [isotope labelled],"Microtubule-associated protein tau, paired helical filaments (MAPT, Homo sapiens, UniProt P10636)",radioligand binding,PHF tau brain homogenate,4.94 nM,higher = more binding,specific binding,5.41 a.u.
c1ccc2[nH]c3c(N=NC4=NCCN4)c4ccccc4c-3nc2c1,"NQO2 (Homo sapiens, UniProt P16083)",from IC50 by Cheng-Prusoff,,,,binding free energy,-8.4 kcal/mol
CCc1c(-c2ccccc2)nn2c(=O)cc(-c3cccc(C(=O)O)c3)[nH]c12,"BLVRA (Homo sapiens, UniProt P53004)","enzyme activity, inhibitor",,"10 µM, together with: biliverdin IXα 25 µM",,remaining activity,97%
CC[C@@H]1C(=O)N(C)c2cnc(Nc3ccc(C(=O)NC4CCN(C)CC4)cc3OC)nc2N1C1CCCC1,"BRD9 (Homo sapiens, UniProt Q9H8M2)",,,10 µM,,delta Tm,0.51 ± 0.09 °C
